Measurements of several laboratories.
Every numbered part comes from another study and shows a few of its results, in no order.

Block 1
Target: Interferon regulatory factor 7, full length, phosphomimetic (IRF7, Homo sapiens, UniProt Q92985, residues 1-503, S471D/S472D/S475D/S476D/S477D/S483D/S484D/S487D)
Chain of UniProt Q92985 (whole entry, unmodified, looked up): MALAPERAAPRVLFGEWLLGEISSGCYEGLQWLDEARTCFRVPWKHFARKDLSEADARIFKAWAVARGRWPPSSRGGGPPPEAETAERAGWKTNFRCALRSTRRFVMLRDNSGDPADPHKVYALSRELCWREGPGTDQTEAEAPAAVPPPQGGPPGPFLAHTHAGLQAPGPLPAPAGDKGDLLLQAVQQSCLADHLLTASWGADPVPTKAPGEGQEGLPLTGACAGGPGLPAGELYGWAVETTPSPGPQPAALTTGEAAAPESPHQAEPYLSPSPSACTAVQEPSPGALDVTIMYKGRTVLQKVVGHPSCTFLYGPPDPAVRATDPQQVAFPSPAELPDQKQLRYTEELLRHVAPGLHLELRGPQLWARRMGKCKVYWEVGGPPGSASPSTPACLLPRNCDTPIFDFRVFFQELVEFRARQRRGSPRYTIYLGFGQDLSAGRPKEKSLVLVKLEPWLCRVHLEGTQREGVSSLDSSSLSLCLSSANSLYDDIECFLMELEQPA
Method: protein-binding microarray
Molecule type: double-stranded DNA, one strand shown
Matrix: in vitro
Concentration: 2200 nM top
Notes: 60-bp whole probe
With: salmon DNA 0.4 mg/ml
Relative to: random background probes
Direction: higher = stronger binding
Endpoint: fitted relative affinity
All sequences stand within: GCCTAGCAC … GTCTTGATTCGCTTGACGCTGCTG
Strand = TTAGAGATCAGTATCGATTAGTGCTAG; value = -0.0859 z-score
Strand = CAGTTTTCCTCTGTCATTTTGTGCTAG; value = 3.64 z-score
Strand = GATGGTCTCGGACTGGGGACGTGCTAG; value = -0.469 z-score
Strand = TTAGGTCTCGCTATCGGTTAGTGCTAG; value = 0.924 z-score
Strand = TGATCTTCCTTCATGGCCTGGTGCTAG; value = 0.833 z-score
Strand = GACGATATAGGGACTGGAGACGTGCTA; value = -0.576 z-score
Strand = TTCGGACTGGGTCTCGGTTAGTGCTAG; value = 0.0888 z-score
Strand = TCCTTTATGTCCTGTCTACATGTGCTA; value = 2.16 z-score
Strand = GTGTATATATAATATATATTCGTGCTA; value = 0.904 z-score
Strand = TTAGGTATCTTTTTCCTTTAGTGCTAG; value = 1.38 z-score
Strand = TTAGAACTGAGACTGGATAAGTGCTAG; value = -0.687 z-score
Strand = GATGAACTGGGGTTTCGAGACGTGCTA; value = 1.11 z-score
Strand = TCAACTCTCTACATGTGACTGTGCTAG; value = 1.03 z-score
Strand = TTATATCTCAGTTTCGATTAGTGCTAG; value = 6.2 z-score
Strand = GCAGACTACCTATGAGTATCGTGCTAG; value = 0.392 z-score
Strand = TGAGATTTCCATTATTGCTTGTGCTAG; value = 0.894 z-score
Strand = CTTACTTCCCAATTGTCTTTGTGCTAG; value = 3.09 z-score
Strand = CTTCCTCTTTCTCTGCTACCGTGCTAG; value = 3.22 z-score
Strand = TCACTCCTATCTTATGATACTGTGCTA; value = 1.6 z-score

Block 2
Target: Fragile X messenger ribonucleoprotein 1, C-terminal low-complexity region (Fmr1, Mus musculus, UniProt P35922)
Method: RNA Bind-n-Seq
Molecule type: RNA
Matrix: in vitro
Concentration: 200 nM
Notes: whole 134-nt RNA, ends assumed
With: 150 mM KCl
Relative to: input library
Direction: higher = stronger binding
Endpoint: log2 enrichment
All sequences stand within: GGGAGUUCUACAGUCCGACGAUC … UGGAAUUCUCGGGUGUCAAGG
Strand = UCCUCCCUGGCUUCAGCCAGUCCCUGACGCUGAGCACUGGCUUCCGAGUCAUCAAGAAGAAGCUGUACAGCUCGGAACAGCUGCUCAUUG; value = -0.96
Strand = CCUGUGCUACACAUCGUAUGUACCGAAUCGGGGAAAAAAGGGGAAAAAAGGAAAAAAGGGGAAAGUAUUAUGUUACGCCGUUCGGAUCUG; value = -0.497
Strand = UCUGCUAAAGAGAAAGGAAAAUUUGAAGAUAUGGCAAAAGCGGACAAGGCCCGUUAUGAAAGAGAAAUGAAAACCUAUAUCCCUCCCAAA; value = 0.144
Strand = AGUCCUGUGCUACACAUCGUAUGUACCGAAUCGGGCCCCCGGCCCCCGGCCCCCGGGGAAAGUAUUAUGUUACGCCGUUCGGAUCUGCAC; value = -0.429
Strand = UCCUGUGCUACACAUCGUAUGUACCGAAUCGGUUUUUUGGGGUUUUUUGGGUUUUUUGGAAAGUAUUAUGUUACGCCGUUCGGAUCUGCA; value = 0.107
Strand = AGUCCUGUGCUACACAUCGUAUGUACCGAAUCGGGAAAAAGGGAAAAAAAGGGUGGGAAAGUAUUAUGUUACGCCGUUCGGAUCUGCACU; value = 0.422
Strand = UCCUGUGCUACACAUCGUAUGUACCGAAUCGGGGUUUUUUUGGGGAAAAAGGGGAGGGGAAAGUAUUAUGUUACGCCGUUCGGAUCUGCA; value = 0.754
Strand = CACAGACAACACGCACCCACACAGACACAGAGGGAAGGGGUUGGGAUGGGGACAGGGUGCACAGCAGGGCGGGGUAGGACCCCACCCCCU; value = 1.36
Strand = UCAAGUCCUGUGCUACACAUCGUAUGUACCGAAUCGGUUUGGGGUUUGGGUUUGGAAAGUAUUAUGUUACGCCGUUCGGAUCUGCACUUC; value = -0.278

Block 3
Target: Max dimerization protein 1, bHLH-zipper, MAX partner unstated (MXD1, Homo sapiens, UniProt Q05195, residues 56-136)
Method: protein-binding microarray
Molecule type: double-stranded DNA, one strand shown
Matrix: in vitro
Concentration: not given
Notes: k-mer, scored over probes, only values ≥0.25
Direction: higher = stronger binding
Endpoint: E-score
Residues (chain): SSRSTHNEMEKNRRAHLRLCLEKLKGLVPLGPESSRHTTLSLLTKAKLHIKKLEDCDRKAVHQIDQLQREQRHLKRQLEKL
Strand = ACACATGC; value = 0.438
Strand = AGTCACGA; value = 0.257
Strand = AGTACCAC; value = 0.257
Strand = ATGTGCGA; value = 0.281
Strand = AGCCCACG; value = 0.335
Strand = CACATGAG; value = 0.385
Strand = CACGCGAG; value = 0.379
Strand = CCATGAGG; value = 0.4
Strand = ACACCATG; value = 0.346
Strand = AGGGGGGA; value = 0.31
Strand = ACATGCAG; value = 0.275
Strand = ACGCGCAC; value = 0.282
Strand = CCACCCCC; value = 0.311
Strand = CGGGGGGA; value = 0.255
Strand = CAGGTGTA; value = 0.257
Strand = GCGTGTGA; value = 0.354
Strand = TGCCGGCA; value = 0.29
Strand = ATGGGTCG; value = 0.273
Strand = CACGTTGG; value = 0.402
Strand = CATGCTAG; value = 0.282
Strand = CGTGACCC; value = 0.263
Strand = ACGTGATC; value = 0.331
Strand = CAGCGTGC; value = 0.39
Strand = ACATGCCG; value = 0.385

Block 4
Target: Histone acetyltransferase KAT6A, winged helix 2, GST fusion (KAT6A, Homo sapiens, UniProt Q92794, residues 85-181)
Method: protein binding microarray
Molecule type: double-stranded DNA, one strand shown
Matrix: in vitro
Concentration: not given
Notes: 8-mer, flanks averaged, mean of 2 arrays, mostly near background
Relative to: not given
Direction: higher = stronger binding
Endpoint: E-score
Construct (chain): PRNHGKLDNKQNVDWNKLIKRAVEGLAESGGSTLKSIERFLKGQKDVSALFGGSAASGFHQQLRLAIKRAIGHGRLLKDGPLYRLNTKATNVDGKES
Strand = ACTCTTAC; value = -0.0136
Strand = GCCTTACA; value = -0.181
Strand = TTTAGAAA; value = 0.112
Strand = AAGCTATC; value = -0.00722
Strand = TCCTCCGA; value = -0.0238
Strand = GGCTATCA; value = 0.0707
Strand = GACCCGGA; value = 0.089
Strand = GGGTTTAC; value = -0.0871
Strand = AGTTGGTG; value = 0.0127
Strand = CCCTCCGC; value = 0.163
Strand = AGAGTTGG; value = -0.122
Strand = GCTGTATA; value = 0.0351
Strand = AAGTCGAG; value = -0.0343
Strand = CCAACGCC; value = 0.0258
Strand = AGCTACCG; value = -0.00888
Strand = CCTCAGCC; value = -0.0528
Strand = CAAATTGC; value = 0.0813
Strand = ATCGGGAA; value = 0.152
Strand = GTAATCAC; value = -0.124
Strand = ATGGCACG; value = -0.136
Strand = AGCTTCCG; value = 0.116
Strand = CCTGCGAA; value = 0.136
Strand = AGAACTTC; value = -0.0378
Strand = AGCTTACG; value = -0.0593
Strand = ATTCGACC; value = 0.0676
